Measurements gathered from unrelated publications.
Each numbered part is a random draw from the data of one study; scales do not carry over between parts.

Series 1
Target: Hepatocyte nuclear factor 3-alpha (Foxa1, Mus musculus, UniProt P35582, residues 1-468, full length assumed)
Technique: EMSA with sequencing
Molecule type: double-stranded DNA, one strand shown
Matrix: in vitro
Concentration: 10 and 20 nM
Notes: whole designed probe, mean of two concentrations, ends assumed
Baseline: negative control set to 0
Direction: higher = stronger binding
Target sequence (chain): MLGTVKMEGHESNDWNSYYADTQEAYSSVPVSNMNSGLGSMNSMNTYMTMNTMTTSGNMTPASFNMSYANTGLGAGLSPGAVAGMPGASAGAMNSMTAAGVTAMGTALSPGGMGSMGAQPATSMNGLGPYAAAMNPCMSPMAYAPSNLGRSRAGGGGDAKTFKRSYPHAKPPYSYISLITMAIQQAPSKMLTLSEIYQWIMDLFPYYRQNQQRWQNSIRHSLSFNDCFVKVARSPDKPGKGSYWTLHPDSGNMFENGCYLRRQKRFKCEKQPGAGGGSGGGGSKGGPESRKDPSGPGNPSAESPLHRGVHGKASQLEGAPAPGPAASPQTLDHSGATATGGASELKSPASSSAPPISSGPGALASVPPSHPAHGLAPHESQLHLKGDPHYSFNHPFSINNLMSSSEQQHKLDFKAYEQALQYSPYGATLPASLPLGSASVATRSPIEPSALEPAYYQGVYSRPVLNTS
Sequence	normalised bound fraction [ratio]
GTGAGCGGTGCCCATTGATGGGGAACGACGGGCACCAGGAGCCCTGTGTCCTCTGCCTTGCAGGTGTTTAGGGAACATTGTTCAGACTGGAAGGAAGAGCCACGTGAAAATGCCCTTTCAGATTACTCTGCTGGGAAGGATATGAAGCCAAACAGAACCAGCTACGGGAGTCTTTCGACCGCAAGACAAAAGGTCCTTTGCCCCCACTACCTGCAACTTTTTCACTGGGATCGTGGGGAC	-0.0393
GTGAGCGGTGCCCATTGATGGGGAACATGTAACCATATGGTTCAAACCTGCGGGTCATATTTTATACACAAATGACTATGACAGGCAGTATTTTTGTGCTGACAAGTTGTATTTCATCCATGTTTACTTAGAATTCCATGCTATCATTAAAAGCTGAACAATAGAACTTTATCTTATTTTCACGCAAAAATTTCACTGAGTGTCCCTCTTATTAAAAAATTTCACTGGGATCGTGGGGAC	0.27
GTGAGCGGTGCCCATTGATGGGGAACTATTGGCATAAGGTTTATAATAGGATCTTGATGAACAGAAATACTGTACACTATTCTTAATTGTAATGTTCATGTCAACGGAGTGCATTAAGAGTAATTTTTAGCTAGAAACATGGTAACTTGTTCCTCTACATGAAACACAAACAGGACAGAGATGGAAATCACTGGTCATAGCAAAAGGACCAAACTTTAGTTTCACTGGGATCGTGGGGAC	0.0384
GTGAGCGGTGCCCATTGATGGGGAACCTTCCCTAGCCCTGACTTCCCAAGCCTTAGTCATCACCCTCTCTCCCACCCAGGGCTCAGCACAGTACCTGGCACTGTCAAGCCCTCAATAAATGTTTACTGAGTGCATTAAAAAAAAAAAAAAGATTTTAATGAGTCATGCTTTAACTGAAGATTTTAGTGTAGTCAGTCATTGGGCCTTGGATGCCAAAGGTTTCACTGGGATCGTGGGGAC	0.151

Series 2
Target: RNA binding protein fox-1 homolog 2, RRM domain, GST-SBP tag (RBFOX2, Homo sapiens, UniProt O43251-10, residues 100-194)
Technique: RNA Bind-n-Seq
Molecule type: RNA
Matrix: in vitro
Concentration: 365 nM
Notes: natural RNA segment, single round, ends assumed
Baseline: no-protein control
Direction: higher = stronger binding
Construct (chain): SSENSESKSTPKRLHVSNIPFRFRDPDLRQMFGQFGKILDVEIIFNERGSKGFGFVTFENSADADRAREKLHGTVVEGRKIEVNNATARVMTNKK
Sequence	RBNS enrichment (R)
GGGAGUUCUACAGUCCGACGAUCCUUUUCUCCUUCUGUCCCUUUUCUCAAAAGCAUCUUUCCCCCAAAUGUAUGUCUCUAGGACAUUUUAUAGUUUUAAGAGGAAGAAAACAGAAACGUGGCAUCAUUUGGGAUGGAAUUCUCGGGUGCCAA	0.343
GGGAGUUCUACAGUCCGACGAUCCCUCCCACCUCUCUCCAGGCUGGUGUUGACUGGGCCCGGAAAUCAAUCCCCAGCACUUACUUCUCACUGCAAAGGAGCAAAACAACAAAAACAGCAAGACCAGAAGUGCCUGGAAUUCUCGGGUGCCAA	0.457
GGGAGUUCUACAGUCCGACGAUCAGUUGUUGAAGGUACCGCUUAAGCCAUUUUUUUCUUAACAUCGGUGGCUCAGUUAAGGAAUGAGAAGAUAGAGGGUCCUCCACUUUCAGCUCAUGCUUUUUUAUGUAGGAUGGAAUUCUCGGGUGCCAA	0.346
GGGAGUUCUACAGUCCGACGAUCUCUAGAUGCCUGUAGCCUGUGGGGAAAAGCCAACUAGAAAACAACUGGCGUUUAUCAGGUACCUUAGAUUGGUCACUUAUACAGCUAAUUUUAUUCGUAGAAAUCAGUAGUGGAAUUCUCGGGUGCCAA	0.427
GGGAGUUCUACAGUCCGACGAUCUAACUUUUUUAUAUUUGGGUUAUGAUGUCAAACGAUCCUAAGCGAAGAUGAUUUCAGUUCAUCAAAUCAUCAUUAAUGACUUUAUGUAUUAUUUGCACAGGGAGAAUUGAUGGAAUUCUCGGGUGCCAA	0.377
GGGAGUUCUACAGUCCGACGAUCUAACACAGAACGAGGUUAUCUAGGGUUGUAGCUUUUGAUACAACUCCCCGAUCUAGAUUUAUUCCUACAUUCUGAAUGGGGAGCAGGUAAGAGCAGAGCACCUCCCACUGUGGAAUUCUCGGGUGCCAA	2.02

Series 3
Target: RING finger protein unkempt homolog, zinc fingers 1-6, SBP tag (UNK, Homo sapiens, UniProt Q9C0B0, residues 30-357)
Sequence of UniProt Q9C0B0 (30-357, looked up): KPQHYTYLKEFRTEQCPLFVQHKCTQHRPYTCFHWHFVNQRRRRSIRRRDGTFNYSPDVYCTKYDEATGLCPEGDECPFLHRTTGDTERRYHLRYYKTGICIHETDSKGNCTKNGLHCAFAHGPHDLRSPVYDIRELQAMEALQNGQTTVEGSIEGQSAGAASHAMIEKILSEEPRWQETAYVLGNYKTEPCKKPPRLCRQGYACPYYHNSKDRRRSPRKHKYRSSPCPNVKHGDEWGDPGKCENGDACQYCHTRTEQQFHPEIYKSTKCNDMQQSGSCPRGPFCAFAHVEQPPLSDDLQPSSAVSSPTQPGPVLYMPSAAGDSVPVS
Technique: RNA Bind-n-Seq
Molecule type: RNA
Matrix: in vitro
Concentration: 100 nM
Notes: RNA with constant flanks, vertebrate orthologous sites, ends assumed
Baseline: input RNA pool
Direction: higher = stronger binding
Sequence	bound/input enrichment [ratio]
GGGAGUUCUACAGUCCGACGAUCUCCUCAACUUGUUCUAGCUGGUGAUCCUUCAAAGUUGGGUCAGGCAUUAGUGCUAGGUACUAGAAAUGUUCAUUUCUCUGUUGCCAUUGAUCAGAGAGACAGACAUUAAAAAACAGUAACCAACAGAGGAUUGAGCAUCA	0.479
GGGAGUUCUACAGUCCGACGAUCGAACUAAAGGAGUUAGCAUCUUUAUUUUUGUAACAAAGAUAAAGGUUAUUUUGAAAUUAUUAGGAUUUUUACACAACUCUGAAAUCUGUUGCUUUUUUAAACAAAUCGUUUGAUCUUAGGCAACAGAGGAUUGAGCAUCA	0.424
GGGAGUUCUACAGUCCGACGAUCUCAGAUCUAAGCCAACAGCAGUUCAAAAAUGCUAUUUAUUUGUGUCUGUAAGUUUGUACAUAGUAACAAUCUCAUAUUGUUGCAGAAUUUUUUUUCCAUGAGUUUGAGUUGUAUUUUUUUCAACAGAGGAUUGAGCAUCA	0.512
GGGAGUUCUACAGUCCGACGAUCACGCUUUGAUGUAAAAUUUGACAUAAAGAGCAGCUGAUCGCAAGCACGACCCCUCCCCUCUAGCCAUUUAAAAAGUUGAAAAAAAAAAUGAUAAAAAACAAAAAACCUACUAGUCUUGAACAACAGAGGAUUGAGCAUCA	3.97
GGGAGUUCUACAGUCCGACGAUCUAAGAAUUGGAAGAAUUGUGUAGGAGGCAGUAGUCAAAAAGUAGAAGCAGUUUGGAAGAGUAGUUACAAAUAUCAAGAGCCAGGUGGCUAAAAGGUGGAGCUAUAGGUCAUUGAAGCUCACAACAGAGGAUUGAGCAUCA	1
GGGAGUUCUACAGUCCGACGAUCGCCUGUGCUUAUACUCUCCUGAGGAAGAGACAAAUUGGGGAAACCUGUCUCCUUUUUAUAGUUUCCUUCUAAAUUAUGACCAGAAGAUAUUUUGCUAUUUCUUUCUUUAUAUAUGGACUUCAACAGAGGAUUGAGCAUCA	0.813
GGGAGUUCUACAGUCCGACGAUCAUAAUCACUCUAAUUGUAUUCUGAAUAAAGUGUAACAUUGUGUAGCCUUUUUGUAUAAAAUAGACAAAUAGAAAUGGUCCGAUUAGUUUCCUUUUUAAUAUGCUUAAAAUAAGCAGGUGGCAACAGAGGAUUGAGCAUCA	1.51
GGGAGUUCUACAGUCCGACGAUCACAGGAGCAGCAUAGGCUGUUUGAGCUUUGGGGAAAUGAGCUUUGCUUUUUAUAUUUAGCUAGGAUACUUUUAUAUGAUGGGUGCUUUGAGUGUGAAUGCAGCAGGCUCUCUUGUUUCCGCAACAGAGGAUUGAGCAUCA	1.47

Series 4
Target: Interferon regulatory factor 5, full length, phosphomimetic (IRF5, Homo sapiens, UniProt Q13568-2, residues 1-514, K96S/S451D/S453D/S456D/S462D)
Technique: protein-binding microarray
Molecule type: double-stranded DNA, one strand shown
Matrix: in vitro
Concentration: 250 nM
Notes: 60-bp whole probe
With: salmon DNA 0.4 mg/ml
Baseline: random background probes
Direction: higher = stronger binding
Constant ends, left off below: GCCTAGCAC … GTCTTGATTCGCTTGACGCTGCTG
Sequence	log fluorescence [z-score]
GACGGTTTCTGTTTCGGGACGTGCTAG	7.76
TTAGGACTGCTACCGCTTTAGTGCTAG	-0.448
AGGTTGATGGCTCTCTGGACGTGCTAG	-0.86
GACTGACTGGGTCTCGGGACGTGCTAG	-0.459
GACGGTATCGACTTTCGGGCCGTGCTA	6.09
TTAGGTAGCGGGTATCGGTTAGTGCTA	3.18
CGAGACCTCGTCTCTATCAAAGTGCTA	-0.0969
GACGGACTGGGGATTGGGGACGTGCTA	-0.35
GACGATATGAGTATCGAGACGTGCTAG	1.98
TTAGGTATCTTTATCCTTTAGTGCTAG	0.218
TTCTGTATGGGCATTTTTCTAGTGCTA	0.37
TCAAATTCCAAGTTCATACTGTGCTAG	0.533
TTAGCTTTCGACTTTCGGTTAGTGCTA	10.8
TCAGGTTAAAATTTTGCACTGTGCTAG	0.107
ATTTAAAACAACTTTCAAAGGGTGCTA	0.692
GACGGACTGGACACTGGGGCCGTGCTA	-0.647
TTAGGCCTCGGTATCGGTTAGTGCTAG	4.04
TTAGGTTTCTGGTTTCGGTTAGTGCTA	9.29
